Results of several laboratories.
Lines come from different studies, so protocols differ. Several values in a cell are separate wells, animals, samples, runs or records. ± gives the spread as reported.

SMILES | tested on | test | test system | conditions | scale | measurement | result
N#Cc1ccc2c(c1)[C@H]1CCCN(C(=O)c3ccc4[nH]cnc4c3)[C@H]1C2 |  | item: 2 h postprandial glucose | human, Phase II trial | oral, 240 mg once daily, day 28, adjusted mean, SE |  | change from baseline | 17.7 mg/dL
CN(C(=O)n1cnc(-c2ccc[n+]([O-])c2)c1)C1CCCCC1 |  |  | rat, brain | 10 mg/kg, 4 h |  | peak PEA level | 4.8 ± 0.5 nmol/g
Cc1ccc(NC(=O)C2(c3ccc4c(c3)OC(F)(F)O4)CC2)nc1-c1cccc(C(=O)O)c1 |  |  | isolated rat colon | 1 nM to 10 µM |  | contraction amplitude | no effect
C[C@@H](Nc1cc(F)cc(F)c1)c1cc(C(=O)N(C)C)cc2c(=O)cc(N3CCOCC3)oc12 |  | immunohistochemistry | human, tumour biopsy | 120 mg twice daily continuous, day 13, 312 h post-dose | relative to: baseline | change in pPRAS40 level | -13.4%
OC(CCN1CCCCC1)(c1ccccc1)C1CC2C=CC1C2 (stereo not shown) |  | resting-state EEG | healthy elderly humans | oral, 4 mg, eyes closed, LS mean | relative to: baseline | change in EEG Beta2-power Fz-Cz | -6.2%
Cc1coc([C@H]2C[C@H]3[C@@H](CF)SC(N)=N[C@@]3(c3ccc(F)cc3F)CO2)n1 |  | item: Aβx-42 | Mus musculus wild-type, brain | subcutaneous, 80 mg/kg, 1 h |  | Aβ42 level | 0.59 ng/g
CC1(C)CCC(c2ccc(Cl)cc2)=C(CN2CCN(c3ccc(C(=O)NS(=O)(=O)c4ccc(N[C@H](CCN5CCOCC5)CSc5ccccc5)c(S(=O)(=O)C(F)(F)F)c4)cc3)CC2)C1 |  | cell killing | canine lymph node CD3+ T cells, dog 39 | 24 h |  | EC50 | 0.142 µM
CC#CC(=O)N[C@H]1CCCN(c2c(F)cc(C(N)=O)c3[nH]c(C)c(C)c23)C1 |  |  | healthy volunteers, single ascending dose, serum | 10 mg, day 10 |  | change from baseline in serum IgM | -16.7 mg/L
Cc1noc(C)c1-c1cc(C(O)(c2ccccn2)c2ccccn2)c2nc(C3CC3)[nH]c2c1 |  | item: CCR2 expression | human, peripheral blood | 0.6 mg, day 1, 1599 study |  | maximum inhibition | 22.5%
CN1CC[C@@H](c2c(O)cc(O)c3c(=O)cc(-c4ccc(C(F)(F)F)cc4Cl)oc23)[C@@H]1CO |  | quantitative RT-PCR | AML patients, PBMCs | oral, 100 to 200 mg | relative to: pretreatment | MCL1 mRNA level | decreased
N#Cc1ccn2c(-c3ccncc3)c(-c3ccc(F)cc3)nc2c1 |  | kinase binding, competitor, MIB/MS competition, item: AKL1 | Candida albicans cell lysate | 100 nM | relative to: DMSO | log2 fold change | -0.115
Cc1cc(C)c(CNC(=O)c2cc(Cl)c3c(c2C)O[C@@](C)([C@H]2CC[C@H](N(C)C)CC2)O3)c(=O)[nH]1 |  |  | human relapsed/refractory PTCL | CR + PR + SD |  | disease control | 53.8%
NC/C(=C\F)COc1cccc(Cn2c(=S)[nH]c(=O)c3[nH]cnc32)c1 |  |  | rats, myocardial ischaemia/reperfusion (LAD ligation) | dose not given |  | fractional shortening | 37.8% and 33.7% and 43.1% and 26.9% and 39.8%
C[C@H]1C[C@H]2CSC(N)=N[C@@]2(c2nc(NC(=O)c3ccc(OC(F)F)cn3)cs2)CO1 |  | item: total Aβ | healthy adults, plasma | 125 mg once daily, day 10 | relative to: placebo | percent change from baseline | -62.1%
N=C(N)NCCC[C@H](NC(=O)[C@H](CCCNC(=N)N)NC(=O)[C@H](CCCCN)NC(=O)[C@H](CCC(N)=O)NC(=O)[C@H](CCCCN)NC(=O)[C@H](Cc1ccc(O)cc1)NC(=O)[C@@H](N)CCCCN)C(=O)N[C@@H](CO)C(=O)N[C@@H](Cc1ccc(O)cc1)C(=O)N[C@@H](CCCCN)C(=O)O |  |  | human, dentin hypersensitivity patients | topical to tooth, 10 µg/tooth repeated, day 36, phase 1/2a trial, added: cold water stimulus | direction not given | median change in VAS score | -21.5 mm
COc1nc(NCc2cn(-c3ccc(C(=O)Nc4ccc([N+](=O)[O-])cc4)cc3)nn2)nc(OC)n1 |  | MTT | normal colonocytes, rat | 72 h |  | maximum non-toxic concentration | 3.35 ± 0.12 nM
O=C(OC(C(F)(F)F)C(F)(F)F)N1CCN(Cc2cccc(Oc3ccccc3)c2)CC1 |  | PET blocking study | rhesus monkey, brain Pons | 0.01 mg/kg, compound pretreatment, added: [18F]T-401 tracer |  | k3 | 0.026 min⁻¹
N#Cc1ccc2c(-c3ccncc3)c(-c3ccc(F)cc3)nn2c1 |  | kinase binding, competitor, MIB/MS competition, item: SHA3 | Candida albicans cell lysate | 10 µM | relative to: DMSO | log2 fold change | -0.539
CNC(=O)c1ccc(N2C(=S)N(c3ccc(C#N)c(C(F)(F)F)c3)C(=O)C2(C)C)cc1F |  | ELISA | H22 tumour-bearing mice, tumour tissue | dose not given |  | CXCL10 level | increased
COc1nnc2ccc(N3CCC(c4ccc(OCCN5CCN(C)C(=O)[C@H]5C)cc4)CC3)nn12 |  |  | human patients | 10 mg once daily, 2-fold above baseline |  | time above HEXIM1 threshold | 1.73 h
O=C(O)CNC(=O)Cc1ccccc1 |  |  | ventricular cardiomyocytes, C57BL/6 mouse | dose not given, 0.82 s |  | sarcomere length | 1.66 µm
CCN1CCN(Cc2ccc(Nc3ncc(F)c(-c4cc(F)c5nc6n(c5c4)[C@H](C)CCC6)n3)nc2)CC1 |  |  | human advanced solid tumours | 50 mg, phase Ia monotherapy RECIST 1.1 |  | median progression-free survival | 1.7 months
c1ccc(-c2n[nH]cc2-c2ccnc3ccccc23)nc1 |  | kinase binding, competitor, MIB/MS competition, item: MCK1 | Candida albicans cell lysate | 100 nM | relative to: DMSO | log2 fold change | 1.19

SMILES | tested on | test | test system | conditions | scale | measurement | result
Cc1cc(/C=C2\Oc3cc(OCC4CC4)ccc3C2=O)cc(C)c1OC(C)(C)C(=O)O |  | RT-PCR, item: PCK1, G6PC | db/db mice, MCD diet-fed, liver | 30 mg/kg | relative to: model group | mRNA level | decreased
Cc1oncc1C(=O)Nc1ccc(C(F)(F)F)cc1 |  | item: dihydroorotate | female CD-1 mice, blood | oral, 30 mg/kg daily, 8 h after dose 1 |  | DHO concentration | 17.8 ± 2.1 µM
N#Cc1ccc2c(c1)[C@H]1CCCN(C(=O)c3ccc4[nH]cnc4c3)[C@H]1C2 |  |  | human, plasma | 20 mg, day 15, 360 h | relative to: placebo and baseline | change in 1.5-AHG | 0.5%
CC[C@@H](C)[C@@H](NC(=O)[C@@H](Cc1ccc(O)cc1)NC(=O)[C@H]1CCCN1C(=O)[C@@H](CCCNC(=N)N)NC(=O)[C@H](N)Cc1c[nH]cn1)C(=O)N[C@H](C)C(=O)N[C@H](Cc1c[nH]cn1)C(=O)N[C@H](CCCNC(=N)N)C(=O)N[C@@H](C(=O)N[C@H](Cc1ccc(O)cc1)C(=O)N[C@H](CO)C(=O)N[C@H](Cc1ccccc1)C(N)=O)C(C)C |  | ex vivo flow cytometry | B16 tumour-bearing mice, tumour | dose not given |  | IFN-γ+ CD4+ T cell frequency | 3.77% and 3.02% and 5.55% and 6.31% and 4.66%
Cc1cc(F)cc2c(CCC(=O)N[C@@H]3C(=O)NC[C@H]3O)c(-c3ccc(F)cc3)[nH]c12 |  |  | APOL1 G2 mice, IFNγ-induced | 30 mg/kg twice daily, day 14 |  | urine albumin/creatinine ratio | 1530 µg/mg and 103 µg/mg and 109 µg/mg and 261 µg/mg and 418 µg/mg and 91.9 µg/mg
Cc1cn(-c2cc(NC(=O)c3ccc(C)c(Nc4nccc(-c5cccnc5)n4)c3)cc(C(F)(F)F)c2)cn1 |  | item: amyloid beta 40 | human, cerebrospinal fluid | dose not given, 12 months versus baseline, unit not given | relative to: placebo | median difference in change | -407
C[C@H]1O[C@@H](O[C@H]2CC[C@@]3(C)[C@@H](CC[C@]4(C)[C@@H]3C=C[C@]35OC[C@@]6(CCC(C)(C)C[C@H]63)[C@@H](O)C[C@]54C)[C@]2(C)CO)[C@H](O)[C@@H](O[C@@H]2O[C@H](CO)[C@@H](O)[C@H](O)[C@H]2O)[C@H]1O |  |  | pair-fed control mice | oral, 15 mg/kg/day | relative to: body weight | liver index | 3.12% and 3.47% and 3.09% and 2.77% and 3.56% and 2.9%
CCOc1c([C@H](C)n2nc(C)c3c(N)ncnc32)cc(Cl)c(F)c1[C@@H]1CNC(=O)C1 |  | Olink proximity extension proteomics, item: CCL17 | human FL or MZL patients, plasma | dose not given, week 8 | relative to: baseline | plasma protein level change | -64%
Cn1cc(Nc2nc(N)nc(-c3cccc(-n4ccc5cc(C6CC6)cc(F)c5c4=O)c3CO)n2)cn1 |  | CD63 upregulation, anti-IgE-induced | human, multiple ascending dose, whole blood basophils ex vivo | 150 mg twice daily, day 14, 1 h |  | inhibition | 70.9%
Cc1cc([C@H]2C[C@H]3[C@@H](CF)SC(N)=N[C@@]3(c3ccc(F)cc3F)CO2)on1 |  | item: Aβx-42 | Mus musculus wild-type, brain | subcutaneous, 30 mg/kg, 3 h |  | Aβ42 level | 0.47 ng/g
COc1ccccc1[C@H](Cn1c(=O)n(C(C)(C)C(=O)O)c(=O)c2c(C)c(-c3ncco3)sc21)OC1CCOCC1 |  | [1-13C]acetate infusion, isotopomer analysis | overweight or obese healthy men, plasma VLDL-TG palmitate | oral, 20 mg single dose, 4 h post-dose, added: oral fructose |  | fractional hepatic DNL | 8.44 % new palmitate
Fc1ccccc1-c1nc2ccn(Cc3ccc(-c4ccc(C(F)(F)F)cc4C(F)(F)F)nn3)cc-2n1 | THP-1 | pyroptotic LDH release |  | 2 µM, 40 min, added: LPS then nigericin |  | inhibition | 21.6%
C=CC(=O)Nc1cc(Nc2nccc(Nc3cc(Cl)c(F)cc3C(C)(C)O)n2)c(OC)cc1N1CC[C@@H](N(C)C)C1 |  |  | human, EGFR exon20ins NSCLC | concentration not given, unknown subtype |  | disease control rate | 80%
NCC(=O)Nc1cncc(-c2nn3c(=O)cc(N4CCNCC4)nc3s2)c1 |  | ADP-induced platelet aggregation, light transmission aggregometry | human, stable CAD on aspirin, platelets ex vivo | subcutaneous, 0.075 mg/kg, 120 min post-dose, added: ADP 20 µM |  | median inhibition | 27.6%
CN(C)C(=O)c1cc2cnc(Nc3ccc(N4CCNCC4)cn3)nc2n1C1CCCC1 |  | RNA-seq GSEA, item: HALLMARK_P53_PATHWAY gene set | MB002 tumour | concentration not given | relative to: vehicle, direction not given | normalized enrichment score | -1.29
CC(C)NCC(O)c1ccc(O)c(O)c1 (stereo not shown) |  |  | ventricular cardiomyocytes, C57BL/6 mouse | dose not given, 0.656 s |  | sarcomere length | 1.72 µm
Cc1cc(-c2nc(C(=O)Nc3cc4oc(N5CCOCC5)nc4nc3N3CC[C@@H](O)C3)co2)ccn1 |  | 3D immunohistochemistry, CLARITY, item: phospho-p38 | mouse, intracranial A20 tumour | dose not given | relative to: total cells | pP38 positive cells | 11.8%
CC1(C)CCC2(CC1)N[C@@H](C(=O)N[C@@H]1CC[C@@H](C(N)=O)OC1)[C@H](c1ccnc(Cl)c1F)[C@]21C(=O)Nc2cc(Cl)ccc21 |  |  | human, solid tumours | 90 mg/day, RECIST | relative to: patients | disease control rate | 50%
CN[C@@H]1COc2c(S(=O)(=O)NC(=O)Nc3c4c(cc5c3CCC5)CCC4)cnn2C1 |  | item: IL-18 | human participants, whole blood ex vivo | 150 mg single dose, 4 h, IL-18, circulating, adjusted for, added: LPS/ATP | relative to: baseline | inhibition | 99.4%
CC(C)(O)c1ccccc1CC[C@@H](SCC1(CC(=O)O)CC1)c1cccc(/C=C/c2ccc3ccc(Cl)cc3n2)c1 |  | paw oedema | mouse | intraperitoneal, 10 mg/kg, 3 h, added: leukotriene |  | maximal inhibition | 77%
O=C(COc1ccc(Cl)cc1)NC12CC(c3nnc([C@H]4C[C@@H](OC(F)(F)F)C4)o3)(C1)C2 |  | item: ATF4 | PBMC ex vivo stimulated, human ALS patients | 100 mg, D28 predose | relative to: baseline | protein level change | -72.6%
CCCCC1(CCCC)CN(c2ccccc2)c2cc(SC)c(OCC(=O)N[C@@H](C(=O)NCC(=O)O)c3ccccc3)cc2S(=O)(=O)C1 |  | item: 7α-hydroxy-4-cholesten-3-one | human, plasma | 2.5 mg once daily, day 1 |  | plasma C4 | 21.7 ng/mL
COc1ccc(C(=O)Nc2ccc(-n3cc(CNc4nc(OC)nc(OC)n4)nn3)cc2)cc1 |  | MTT | normal colonocytes, rat | 72 h |  | maximum non-toxic concentration | 1.49 ± 0.19 nM

Repeated from above:
SMILES | tested on | test | test system | conditions | scale | measurement | result
CNC(=O)c1ccc(N2C(=S)N(c3ccc(C#N)c(C(F)(F)F)c3)C(=O)C2(C)C)cc1F |  | ELISA | H22 tumour-bearing mice, tumour tissue | dose not given |  | CXCL10 level | increased
Cc1cc(C)c(CNC(=O)c2cc(Cl)c3c(c2C)O[C@@](C)([C@H]2CC[C@H](N(C)C)CC2)O3)c(=O)[nH]1 |  |  | human relapsed/refractory PTCL | CR + PR + SD |  | disease control | 53.8%
C=CC(=O)Nc1cc(Nc2nccc(Nc3cc(Cl)c(F)cc3C(C)(C)O)n2)c(OC)cc1N1CC[C@@H](N(C)C)C1 |  |  | human, EGFR exon20ins NSCLC | concentration not given, unknown subtype |  | disease control rate | 80%
COc1nc(NCc2cn(-c3ccc(C(=O)Nc4ccc([N+](=O)[O-])cc4)cc3)nn2)nc(OC)n1 |  | MTT | normal colonocytes, rat | 72 h |  | maximum non-toxic concentration | 3.35 ± 0.12 nM
CN(C(=O)n1cnc(-c2ccc[n+]([O-])c2)c1)C1CCCCC1 |  |  | rat, brain | 10 mg/kg, 4 h |  | peak PEA level | 4.8 ± 0.5 nmol/g
Cc1coc([C@H]2C[C@H]3[C@@H](CF)SC(N)=N[C@@]3(c3ccc(F)cc3F)CO2)n1 |  | item: Aβx-42 | Mus musculus wild-type, brain | subcutaneous, 80 mg/kg, 1 h |  | Aβ42 level | 0.59 ng/g
